Assay results of several laboratories.
Protocols differ between the studies behind these lines. Numbers after ± are the reported error.
Matrix: plasma
Route: oral

Structure (SMILES) | system | setting | quantity | result
CNC(=O)c1c(C)oc2cc(Oc3ncnc4cc(OC)c(OC)cc34)ccc12 | human | 5 mg, fasted, with: rabeprazole 40 mg | Vz/F | 46.1 L
CCOc1ccc(Cc2cc([C@]34OC[C@](CO)(O3)[C@@H](O)[C@H](O)[C@H]4O)ccc2Cl)cc1 | human, type 2 diabetes, mild renal impairment | 15 mg | Vz/F | 255 L
O=C(c1cccnc1-c1ccncc1)N1CCC(O)(Cc2ccccc2)CC1 | healthy human | 400 mg once daily, day 1, arithmetic mean | Vz/F | 1330 L
CNC(=O)c1ccc(-c2cnc3ncc(Cc4ccc5ncccc5c4)n3n2)cc1F | human, normal hepatic function | 200 mg single dose | Vz/F (mean) | 655 L
CC(C)NC[C@@H](C(=O)N1CCN(c2ncnc3c2[C@H](C)C[C@H]3O)CC1)c1ccc(Cl)cc1 | human, Moderate hepatic function (Child-Pugh) | 100 mg single dose, geometric mean | Vz/F | 14000 L
Cc1nc(-c2ccc(OCC(C)C)c(C#N)c2)sc1C(=O)O | human adults | 10 to 160 mg once daily, fed, PopPK post hoc | Vz/F at steady state | 94.5 ± 22.4 L
C=CC(=O)N1CCC(CNc2ncnc(N)c2-c2ccc(Oc3ccccc3)cc2)CC1 | human | 350 mg single dose, geometric mean | Vz/F | 1800 L
CCOc1c([C@H](C)n2nc(C)c3c(N)ncnc32)cc(Cl)c(F)c1[C@@H]1CNC(=O)C1 | healthy fasted humans | 20 mg | Vz/F geometric mean | 60 L
CN(C)C/C=C/C(=O)Nc1cc2c(Nc3ccc(F)c(Cl)c3)ncnc2cc1O[C@H]1CCOC1 | human | 10 mg once daily, day 27, geometric mean | Vz/F at steady state | 16100 L

Some of these lines once more:
Structure (SMILES) | system | setting | quantity | result
Cc1nc(-c2ccc(OCC(C)C)c(C#N)c2)sc1C(=O)O | human adults | 10 to 160 mg once daily, fed, PopPK post hoc | Vz/F at steady state | 94.5 ± 22.4 L
